Results collected from several papers.
A part holds a random share of what one study measured. Several values in a cell are separate wells, animals, samples, runs or records.
Chain of UniProt P41145 (whole entry, looked up): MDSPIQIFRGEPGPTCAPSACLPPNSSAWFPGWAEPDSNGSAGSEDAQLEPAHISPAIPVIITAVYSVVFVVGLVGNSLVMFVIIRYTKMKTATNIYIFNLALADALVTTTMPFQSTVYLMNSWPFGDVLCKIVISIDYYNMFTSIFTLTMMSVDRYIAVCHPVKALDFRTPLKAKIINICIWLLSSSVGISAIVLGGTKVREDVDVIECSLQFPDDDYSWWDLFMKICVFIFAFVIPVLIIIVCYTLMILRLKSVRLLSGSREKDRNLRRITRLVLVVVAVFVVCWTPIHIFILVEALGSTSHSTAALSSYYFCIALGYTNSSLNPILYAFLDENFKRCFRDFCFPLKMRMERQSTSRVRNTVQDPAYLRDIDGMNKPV
Chain of UniProt P20309 (whole entry, looked up): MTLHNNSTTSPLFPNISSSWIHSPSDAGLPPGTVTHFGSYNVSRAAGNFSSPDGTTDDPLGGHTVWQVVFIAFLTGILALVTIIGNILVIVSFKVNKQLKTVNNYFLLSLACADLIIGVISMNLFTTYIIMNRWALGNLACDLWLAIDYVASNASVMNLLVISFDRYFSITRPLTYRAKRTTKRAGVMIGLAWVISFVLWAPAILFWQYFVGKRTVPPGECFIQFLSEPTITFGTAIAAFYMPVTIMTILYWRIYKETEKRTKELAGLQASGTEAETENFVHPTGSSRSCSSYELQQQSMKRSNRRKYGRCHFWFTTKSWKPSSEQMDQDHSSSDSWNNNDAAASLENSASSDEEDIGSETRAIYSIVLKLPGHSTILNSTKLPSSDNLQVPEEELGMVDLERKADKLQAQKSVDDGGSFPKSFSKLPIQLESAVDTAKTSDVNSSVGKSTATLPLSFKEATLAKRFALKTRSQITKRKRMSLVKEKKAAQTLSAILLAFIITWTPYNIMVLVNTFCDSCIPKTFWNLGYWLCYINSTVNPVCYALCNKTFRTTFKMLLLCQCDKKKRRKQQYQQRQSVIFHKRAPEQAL
Chain of UniProt P41143 (whole entry, looked up): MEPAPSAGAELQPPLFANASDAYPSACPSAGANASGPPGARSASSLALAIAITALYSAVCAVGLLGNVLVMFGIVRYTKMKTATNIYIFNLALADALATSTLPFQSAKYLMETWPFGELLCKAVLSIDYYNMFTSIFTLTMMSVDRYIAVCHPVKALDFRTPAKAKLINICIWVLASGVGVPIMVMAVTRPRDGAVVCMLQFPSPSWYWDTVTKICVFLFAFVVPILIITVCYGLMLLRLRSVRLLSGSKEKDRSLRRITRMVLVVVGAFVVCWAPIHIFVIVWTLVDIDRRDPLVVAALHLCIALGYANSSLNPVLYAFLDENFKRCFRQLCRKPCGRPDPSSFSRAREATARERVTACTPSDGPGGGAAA
Chain of UniProt P35372 (whole entry, looked up): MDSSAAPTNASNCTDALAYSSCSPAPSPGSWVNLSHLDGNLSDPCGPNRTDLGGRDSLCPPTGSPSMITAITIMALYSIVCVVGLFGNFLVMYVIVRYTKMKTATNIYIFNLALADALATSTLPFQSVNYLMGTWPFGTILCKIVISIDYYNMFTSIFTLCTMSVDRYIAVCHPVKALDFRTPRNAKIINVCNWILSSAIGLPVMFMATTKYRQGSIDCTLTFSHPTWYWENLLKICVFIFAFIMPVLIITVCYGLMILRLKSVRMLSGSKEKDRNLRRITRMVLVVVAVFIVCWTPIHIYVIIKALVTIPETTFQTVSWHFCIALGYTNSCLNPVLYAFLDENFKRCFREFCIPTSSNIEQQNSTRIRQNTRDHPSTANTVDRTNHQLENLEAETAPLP
Chain of UniProt P11229 (whole entry, looked up): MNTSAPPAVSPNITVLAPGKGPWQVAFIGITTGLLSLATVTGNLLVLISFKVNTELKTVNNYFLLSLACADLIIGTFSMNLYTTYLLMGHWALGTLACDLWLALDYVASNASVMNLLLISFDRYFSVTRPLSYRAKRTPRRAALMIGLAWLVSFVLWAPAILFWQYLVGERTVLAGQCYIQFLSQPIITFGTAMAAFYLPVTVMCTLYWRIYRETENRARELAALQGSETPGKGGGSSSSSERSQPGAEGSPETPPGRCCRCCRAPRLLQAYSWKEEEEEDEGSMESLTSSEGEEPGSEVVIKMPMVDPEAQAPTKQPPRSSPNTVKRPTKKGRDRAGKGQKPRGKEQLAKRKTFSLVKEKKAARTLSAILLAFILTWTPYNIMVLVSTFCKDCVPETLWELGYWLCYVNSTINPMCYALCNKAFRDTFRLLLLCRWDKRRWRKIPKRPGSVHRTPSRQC
Chain of UniProt P21918 (whole entry, looked up): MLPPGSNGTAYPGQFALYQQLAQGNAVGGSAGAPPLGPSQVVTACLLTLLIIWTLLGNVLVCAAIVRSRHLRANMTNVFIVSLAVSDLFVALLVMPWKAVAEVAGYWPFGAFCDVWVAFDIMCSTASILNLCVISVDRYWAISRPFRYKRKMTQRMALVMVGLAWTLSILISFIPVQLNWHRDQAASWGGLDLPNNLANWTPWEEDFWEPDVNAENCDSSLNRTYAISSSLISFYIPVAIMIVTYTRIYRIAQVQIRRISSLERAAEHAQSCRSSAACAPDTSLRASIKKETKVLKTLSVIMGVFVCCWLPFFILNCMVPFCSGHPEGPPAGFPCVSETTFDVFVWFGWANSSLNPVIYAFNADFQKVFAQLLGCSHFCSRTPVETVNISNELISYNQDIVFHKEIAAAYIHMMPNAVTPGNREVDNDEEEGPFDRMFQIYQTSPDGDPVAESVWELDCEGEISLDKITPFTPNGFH
Chain of UniProt P28223 (whole entry, looked up): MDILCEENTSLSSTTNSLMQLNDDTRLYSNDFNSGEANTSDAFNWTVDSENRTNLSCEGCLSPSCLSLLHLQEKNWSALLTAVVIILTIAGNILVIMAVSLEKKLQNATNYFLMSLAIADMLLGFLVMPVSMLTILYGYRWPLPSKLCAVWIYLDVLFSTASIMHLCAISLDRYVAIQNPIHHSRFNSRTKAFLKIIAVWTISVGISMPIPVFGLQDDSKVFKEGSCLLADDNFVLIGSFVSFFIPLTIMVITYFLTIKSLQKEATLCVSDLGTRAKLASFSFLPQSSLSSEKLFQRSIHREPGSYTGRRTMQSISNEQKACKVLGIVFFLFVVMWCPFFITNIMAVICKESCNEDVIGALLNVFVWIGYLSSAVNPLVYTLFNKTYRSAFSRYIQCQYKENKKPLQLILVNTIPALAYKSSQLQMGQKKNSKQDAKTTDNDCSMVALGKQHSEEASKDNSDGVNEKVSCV

Sample 1
Cell line: mouse MPNST tumor cells
Technique: high-content immunofluorescence imaging
Measured: nuclear SOX9
Tested at: 10 µM
Time: 12 h
Notes: mean of 2 replicates
Relative to: DMSO control
Reading: higher = more nuclear SOX9
Structure (SMILES)	nuclear SOX9 intensity
CCc1cccc(CC)c1NC1=NCCN1	97.8 % of DMSO
CCC1(c2ccc(N)cc2)CCC(=O)NC1=O (stereo not shown)	95.1 % of DMSO
Clc1ccc(C(OCCN2CCCCC2)c2ccccc2)cc1 (stereo not shown)	195 % of DMSO
CCN(CC)C(C)C(=O)c1ccccc1 (stereo not shown)	97.7 % of DMSO

Sample 2
Organism: Sarcocystis neurona
Read-out: parasite activity
Tested at: 10 µM
Time: 96 h
Compound	activity class
C[N+]1(C)CCN(c2ccccc2)CC1	inactive
NC(=O)OCCCc1ccccc1	inactive
O=C(O)CCCc1ccc(N(CCCl)CCCl)cc1	inactive

Sample 3
SMILES: CC(C)S(=O)(=O)c1cc2c(Nc3ccc4sc(C5CCCC5)nc4c3)ccnc2cc1OCCO
Technique: CCK-8
cell line	conditions	survival
L929 RIPK3-/- reexpressing RIPK3 K51A/R69H	1.563 µM	86.3% and 101% and 89.9% and 96.9% and 98%
L929 RIPK3-/- reexpressing RIPK3 K51A	1.563 µM, together with: zVAD	89.2% and 96.8% and 84.3% and 94.2%
L929 RIPK3-/- reexpressing RIPK3 K51A	12.5 µM, together with: zVAD	66.1% and 66% and 68.9% and 71.7%
L929 RIPK3-/- reexpressing RIPK3 K51A	1.563 µM	93.1% and 101% and 91.7%
L929 RIPK3-/- reexpressing RIPK3 K51A	3.125 µM, together with: zVAD	85% and 82.4% and 90% and 78.9%

Sample 4
SMILES: CN(c1ccnc(CNc2nc(Nc3ccc4c(c3)CC(=O)N4)ncc2C(F)(F)F)n1)S(C)(=O)=O
Read-out: cell-free assay
Tested at: 10 µM
target	inhibition [%]
OPRD1 (Homo sapiens, UniProt P41143)	-6.88
CHRM1 (Homo sapiens, UniProt P11229)	-6.58
HTR2A (Homo sapiens, UniProt P28223)	4.75
CHRM3 (Homo sapiens, UniProt P20309)	-4.64
OPRM1 (Homo sapiens, UniProt P35372)	0.77
DRD5 (Homo sapiens, UniProt P21918)	-0.97
OPRK1 (Homo sapiens, UniProt P41145)	-31.1

For quick reference, copied from above (sample 4):
target	inhibition [%]
DRD5 (Homo sapiens, UniProt P21918)	-0.97
OPRK1 (Homo sapiens, UniProt P41145)	-31.1
HTR2A (Homo sapiens, UniProt P28223)	4.75
